Measurements of several laboratories.
Lines come from different studies, so protocols differ. Numbers after ± are the reported error.
Sctr: Sctr (Rattus norvegicus, UniProt P23811)
UniProt P25929, sequence (whole entry, unmodified, looked up): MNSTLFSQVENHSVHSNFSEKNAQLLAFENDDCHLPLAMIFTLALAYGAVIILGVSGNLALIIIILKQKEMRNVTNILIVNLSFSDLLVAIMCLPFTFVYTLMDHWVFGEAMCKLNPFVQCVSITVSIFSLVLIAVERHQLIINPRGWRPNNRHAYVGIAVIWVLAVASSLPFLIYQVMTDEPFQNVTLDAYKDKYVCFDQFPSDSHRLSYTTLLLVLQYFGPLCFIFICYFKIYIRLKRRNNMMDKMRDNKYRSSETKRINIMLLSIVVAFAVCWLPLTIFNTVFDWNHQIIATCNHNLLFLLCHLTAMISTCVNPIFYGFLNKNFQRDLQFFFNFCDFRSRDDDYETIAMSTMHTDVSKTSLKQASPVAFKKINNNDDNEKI
UniProt P23811, sequence (whole entry, looked up): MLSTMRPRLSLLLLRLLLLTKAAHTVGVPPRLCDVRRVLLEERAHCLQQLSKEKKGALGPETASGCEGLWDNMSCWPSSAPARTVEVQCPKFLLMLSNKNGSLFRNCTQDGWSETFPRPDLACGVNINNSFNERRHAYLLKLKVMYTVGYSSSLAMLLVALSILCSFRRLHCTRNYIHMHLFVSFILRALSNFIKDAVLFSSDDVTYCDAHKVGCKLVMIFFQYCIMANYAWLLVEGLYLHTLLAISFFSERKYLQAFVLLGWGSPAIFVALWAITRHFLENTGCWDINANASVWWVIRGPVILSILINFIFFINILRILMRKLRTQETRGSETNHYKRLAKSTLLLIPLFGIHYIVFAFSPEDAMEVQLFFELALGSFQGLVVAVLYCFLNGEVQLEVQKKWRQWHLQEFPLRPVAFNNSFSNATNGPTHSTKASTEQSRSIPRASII
UniProt Q60755, sequence (whole entry, unmodified, looked up): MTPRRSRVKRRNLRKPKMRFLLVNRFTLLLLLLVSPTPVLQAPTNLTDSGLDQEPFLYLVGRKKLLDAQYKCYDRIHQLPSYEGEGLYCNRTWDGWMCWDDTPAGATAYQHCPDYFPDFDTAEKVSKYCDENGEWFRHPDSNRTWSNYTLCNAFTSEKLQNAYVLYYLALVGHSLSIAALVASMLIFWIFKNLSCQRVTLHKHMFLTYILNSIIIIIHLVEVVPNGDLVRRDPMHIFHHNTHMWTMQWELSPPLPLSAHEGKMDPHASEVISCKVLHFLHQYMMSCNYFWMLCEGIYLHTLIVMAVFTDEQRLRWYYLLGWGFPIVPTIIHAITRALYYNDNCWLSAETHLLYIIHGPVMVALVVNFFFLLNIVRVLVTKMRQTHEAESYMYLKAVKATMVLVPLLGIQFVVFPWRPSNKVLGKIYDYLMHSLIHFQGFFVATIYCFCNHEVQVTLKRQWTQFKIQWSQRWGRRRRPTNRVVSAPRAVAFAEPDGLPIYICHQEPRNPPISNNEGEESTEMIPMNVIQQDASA
UniProt Q9UL62, sequence (whole entry, looked up): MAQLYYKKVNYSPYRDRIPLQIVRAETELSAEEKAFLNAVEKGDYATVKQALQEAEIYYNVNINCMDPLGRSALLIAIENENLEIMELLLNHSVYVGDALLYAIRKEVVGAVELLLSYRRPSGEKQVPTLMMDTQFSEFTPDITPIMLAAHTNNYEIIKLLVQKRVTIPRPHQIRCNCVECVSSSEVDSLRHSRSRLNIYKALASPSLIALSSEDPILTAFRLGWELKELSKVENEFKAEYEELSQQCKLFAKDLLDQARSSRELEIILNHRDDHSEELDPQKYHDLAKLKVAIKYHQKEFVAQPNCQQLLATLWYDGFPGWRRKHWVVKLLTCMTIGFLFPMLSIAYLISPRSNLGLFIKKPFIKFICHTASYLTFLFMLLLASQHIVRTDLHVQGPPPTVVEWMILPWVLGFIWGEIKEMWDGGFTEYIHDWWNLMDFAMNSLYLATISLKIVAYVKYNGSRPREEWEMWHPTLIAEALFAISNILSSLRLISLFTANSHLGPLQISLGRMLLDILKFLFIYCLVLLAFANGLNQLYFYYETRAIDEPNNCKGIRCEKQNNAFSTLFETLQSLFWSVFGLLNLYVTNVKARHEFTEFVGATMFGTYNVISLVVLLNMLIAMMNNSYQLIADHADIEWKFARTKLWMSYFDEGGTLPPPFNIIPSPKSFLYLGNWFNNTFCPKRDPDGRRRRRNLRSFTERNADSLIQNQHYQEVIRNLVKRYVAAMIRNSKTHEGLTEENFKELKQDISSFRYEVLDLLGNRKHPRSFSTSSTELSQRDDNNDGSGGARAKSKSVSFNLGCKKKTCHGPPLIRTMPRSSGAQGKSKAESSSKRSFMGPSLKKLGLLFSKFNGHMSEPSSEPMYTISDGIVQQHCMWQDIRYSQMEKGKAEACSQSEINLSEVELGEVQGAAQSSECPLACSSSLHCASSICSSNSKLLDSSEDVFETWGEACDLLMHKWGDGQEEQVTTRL
UniProt P32241, sequence (whole entry, looked up): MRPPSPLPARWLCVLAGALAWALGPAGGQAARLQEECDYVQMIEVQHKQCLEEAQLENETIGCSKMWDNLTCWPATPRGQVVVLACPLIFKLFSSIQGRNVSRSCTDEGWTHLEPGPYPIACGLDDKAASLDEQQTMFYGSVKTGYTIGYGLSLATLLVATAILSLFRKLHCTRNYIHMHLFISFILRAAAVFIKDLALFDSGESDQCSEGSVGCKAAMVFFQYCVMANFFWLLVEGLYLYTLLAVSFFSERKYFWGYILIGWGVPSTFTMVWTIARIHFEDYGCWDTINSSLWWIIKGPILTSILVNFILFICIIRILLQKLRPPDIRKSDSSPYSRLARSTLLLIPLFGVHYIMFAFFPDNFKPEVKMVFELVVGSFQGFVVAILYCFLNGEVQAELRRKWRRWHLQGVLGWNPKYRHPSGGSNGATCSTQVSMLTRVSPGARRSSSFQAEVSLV
UniProt P30550, sequence (whole entry, looked up): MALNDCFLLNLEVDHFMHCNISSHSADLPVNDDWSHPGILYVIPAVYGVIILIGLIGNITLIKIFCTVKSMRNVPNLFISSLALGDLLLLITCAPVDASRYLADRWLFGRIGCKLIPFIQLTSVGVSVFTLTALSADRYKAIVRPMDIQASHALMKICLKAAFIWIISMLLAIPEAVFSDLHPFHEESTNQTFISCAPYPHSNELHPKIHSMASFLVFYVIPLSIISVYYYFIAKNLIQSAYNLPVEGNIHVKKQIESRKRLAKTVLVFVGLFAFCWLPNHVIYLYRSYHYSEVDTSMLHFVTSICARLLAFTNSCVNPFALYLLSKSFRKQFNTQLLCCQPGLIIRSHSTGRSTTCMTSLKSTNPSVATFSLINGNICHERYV
UniProt Q03111, sequence (whole entry, looked up): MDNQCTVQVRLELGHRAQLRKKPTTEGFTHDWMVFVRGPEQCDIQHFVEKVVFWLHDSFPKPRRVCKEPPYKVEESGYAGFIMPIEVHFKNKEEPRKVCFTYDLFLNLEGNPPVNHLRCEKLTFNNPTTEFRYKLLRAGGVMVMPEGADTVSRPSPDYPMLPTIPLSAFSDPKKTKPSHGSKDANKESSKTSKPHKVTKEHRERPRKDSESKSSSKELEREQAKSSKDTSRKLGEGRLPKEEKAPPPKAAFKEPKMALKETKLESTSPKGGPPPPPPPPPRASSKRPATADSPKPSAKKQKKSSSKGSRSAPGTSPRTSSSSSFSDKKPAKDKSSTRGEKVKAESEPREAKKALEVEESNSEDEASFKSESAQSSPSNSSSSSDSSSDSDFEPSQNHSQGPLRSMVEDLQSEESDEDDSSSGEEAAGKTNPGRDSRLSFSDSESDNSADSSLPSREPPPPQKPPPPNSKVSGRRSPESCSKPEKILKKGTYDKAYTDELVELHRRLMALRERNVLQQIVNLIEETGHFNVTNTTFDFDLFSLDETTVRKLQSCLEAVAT
UniProt Q9WUP0, sequence (whole entry, unmodified, looked up): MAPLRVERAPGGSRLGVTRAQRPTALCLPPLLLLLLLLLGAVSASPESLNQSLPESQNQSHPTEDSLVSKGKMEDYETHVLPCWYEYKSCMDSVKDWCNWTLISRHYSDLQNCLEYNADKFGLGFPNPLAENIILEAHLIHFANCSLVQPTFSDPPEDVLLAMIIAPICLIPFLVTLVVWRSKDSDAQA

[64Cu+2].c1cnc(CNCc2ccc(CN3CCCN4CCNCCCN(CC4)CC3)cc2)nc1 — tissue uptake (CXCR4; NOD/SCID mouse, U87 and U87-stb-CXCR4 xenografts, bladder; iv, 90 min, no blocking dose, ex vivo): 0.82 ± 0.09 %ID/g
CCC(=O)NCCNC(=O)/N=C(/N)NCCC[C@@H](NC(=O)C(c1ccccc1)c1ccccc1)C(=O)NCc1ccc(O)cc1 — Kb (NPY1R (Homo sapiens, UniProt P25929, F286A); antagonist; human cells): 0.00256 µM
CC[C@H](C)[C@H](NC(=O)[C@H](CCC(N)=O)NC(=O)[C@H](Cc1c[nH]cn1)NC(=O)[C@H](C)NC(=O)[C@H](CC(C)C)NC(=O)[C@H](CCCCN)NC(=O)[C@H](CCC(N)=O)NC(=O)[C@@H](NC(=O)[C@@H](NC(=O)[C@@H]1CSSC[C@H](NC(=O)CNC(=O)[C@H](Cc2ccccc2)NC(=O)[C@H](CO)NC(=O)[C@H](CCCNC(=N)N)NC(=O)[C@H](CC(C)C)NC(=O)CNC(=O)[C@H](CCC(N)=O)NC(=O)[C@H](Cc2ccccc2)NC(=O)[C@H](CC(N)=O)NC(=O)[C@H](CC(N)=O)NC(=O)[C@H](CCSC)NC(=O)[C@H](CO)NC(=O)[C@H](CCC(N)=O)NC(=O)[C@H](CCCNC(=N)N)NC(=O)[C@@H](N)Cc2ccc(O)cc2)C(=O)N[C@@H](CCCNC(=N)N)C(=O)N[C@@H](Cc2ccccc2)C(=O)NCC(=O)N[C@@H]([C@@H](C)O)C(=O)N1)[C@@H](C)O)C(C)C)C(=O)N[C@@H](Cc1ccc(O)cc1)C(=O)N[C@@H](CCC(N)=O)C(=O)N[C@@H](Cc1ccccc1)C(=O)N[C@H](C(=O)N[C@@H](CC(=O)O)C(=O)N[C@@H](CCCCN)C(=O)N[C@@H](CC(=O)O)C(=O)N[C@@H](CCCCN)C(=O)N[C@@H](CC(=O)O)C(=O)N[C@@H](CC(N)=O)C(=O)N[C@H](C(=O)N[C@@H](C)C(=O)N1CCC[C@H]1C(=O)N[C@@H](CCCNC(=N)N)C(=O)N[C@@H](CO)C(=O)N[C@@H](CCCCN)C(=O)N[C@H](C(=O)N[C@@H](CO)C(=O)N1CCC[C@H]1C(=O)N[C@@H](CCC(N)=O)C(=O)NCC(=O)N[C@@H](Cc1ccc(O)cc1)C(N)=O)[C@@H](C)CC)C(C)C)[C@@H](C)O — EC50 (Calcr/Ramp2 (Mus musculus, UniProt Q60755+Q9WUP0, P10T); cAMP production, agonist; COS-7, transfected; 15 min, 37 °C, with: IBMX 1 mM): 0.1 µM
CSCC[C@H](NC(=O)[C@H](CC(C)C)NC(=O)[C@H](Cc1c[nH]cn1)NC(=O)[C@@H](C)NC(=O)[C@@H](NC(=O)[C@H](C)NC(=O)[C@H](Cc1c[nH]c2ccccc12)NC(=O)[C@H](CCC(N)=O)NC(=O)[C@H](CC(N)=O)NC(=O)CNC(=O)[C@H](CC(C)C)NC(=O)[C@H](CCCNC(=N)N)NC(=O)[C@H](CCC(N)=O)NC(=O)[C@@H]1CCC(=O)N1)C(C)C)C(N)=O — EC50 (GRPR (Homo sapiens, UniProt P30550); inositol phosphate formation, agonist; BALB/3T3 transfected with human GRPR; 45 min, 37 °C; reference: 1 µM GRP): 0.001 ± 3e-05 µM
CC[C@H](C)[C@H](NC(=O)CNC(=O)[C@H](CC(=O)O)NC(=O)[C@H](CO)NC(=O)C=Cc1c[nH]cn1)C(=O)N[C@@H](Cc1ccccc1)C(=O)N[C@H](C(=O)N[C@@H](CC(=O)O)C(=O)N[C@@H](CO)C(=O)N[C@@H](Cc1ccc(O)cc1)C(=O)N[C@@H](CO)C(=O)N[C@@H](CCCNC(=N)N)C(=O)N[C@@H](Cc1ccc(O)cc1)C(=O)N[C@@H](CCCNC(=N)N)C(=O)N[C@@H](CCCCN)C(=O)N[C@@H](CCC(N)=O)C(=O)N[C@@H](CCSC)C(=O)N[C@@H](C)C(=O)N[C@H](C(=O)N[C@@H](CCCCN)C(=O)N[C@@H](CCCCN)C(=O)N[C@@H](C)C(=O)N[C@@H](CC(C)C)C(=O)N[C@@H](C)C(=O)N[C@@H](C)C(=O)N[C@H](C(=O)N[C@@H](CC(C)C)C(=O)NCC(=O)N[C@@H](CCCCN)C(=O)N[C@@H](CCCNC(=N)N)C(=O)N[C@@H](Cc1ccc(O)cc1)C(=O)N[C@@H](CCCCN)C(=O)N[C@@H](CCC(N)=O)C(=O)N[C@@H](CCCNC(=N)N)C(=O)N[C@H](C(=O)N[C@@H](CCCCN)C(=O)N[C@@H](CC(N)=O)C(=O)N[C@@H](CCCCN)C(N)=O)C(C)C)C(C)C)C(C)C)[C@@H](C)O — EC50 (VIPR1 (Homo sapiens, UniProt P32241); cAMP, agonist, radiometric): 0.069 µM
C[C@H](N)C(=O)N[C@@H](C)C(=O)N[C@@H](Cc1c[nH]c2ccccc12)C(=O)N[C@@H](CC(=O)O)C(=O)N[C@@H](C)C(=O)N[C@H](C)C(=O)O — EC50 (Sctr; cAMP, agonist, TR-FRET): 78 µM
CCOC(=O)CNC(=O)/N=C(/N)NCCC[C@@H](NC(=O)C(c1ccccc1)c1ccccc1)C(=O)NCc1ccc(O)cc1 — Kb (NPY1R (Homo sapiens, UniProt P25929); inositol phosphate, antagonist): 0.00014 µM
O=C(NC1CCC1)c1ccc2nc(-c3cccc(NS(=O)(=O)NCCc4c[nH]cn4)c3)cn2c1 — EC50 (Protein ENL, YEATS domain (MLLT1, Homo sapiens, UniProt Q03111); cell-based): 0.425 µM
[64Cu+2].c1ccc(CNCc2ccc(CN3CCCN4CCNCCCN(CC4)CC3)cc2)nc1 — tissue uptake (CXCR4; NOD/SCID mouse, U87 and U87-stb-CXCR4 xenografts, muscle; iv, 90 min, no blocking dose, ex vivo): 0.28 ± 0.04 %ID/g
Cn1c(=O)n(CCCO)c(=O)c2c1nc(Oc1cccc(C3(C(F)(F)F)N=N3)c1)n2Cc1ccc(Cl)cc1 — EC50 (TRPC5 (Homo sapiens, UniProt Q9UL62); calcium signal, agonist, fluorescence): 0.013 µM
CC(C)C[C@H](NC(=O)CNC(=O)[C@H](CCC(N)=O)NC(=O)[C@H](CC(C)C)NC(=O)[C@H](CC(C)C)NC(=O)[C@H](CCCNC(=N)N)NC(=O)[C@H](CCC(N)=O)NC(=O)[C@H](CC(C)C)NC(=O)[C@H](CCCNC(=N)N)NC(=O)[C@H](C)NC(=O)[C@H](CO)NC(=O)[C@H](CC(=O)O)NC(=O)[C@H](CCC(N)=O)NC(=O)[C@H](CC(C)C)NC(=O)[C@H](CCCNC(=N)N)NC(=O)[C@H](CO)NC(=O)[C@H](C)NC(=O)[C@H](CCC(=O)O)NC(=O)[C@H](CO)NC(=O)[C@@H](NC(=O)[C@H](Cc1ccccc1)NC(=O)[C@@H](NC(=O)CNC(=O)[C@H](CC(=O)O)NC(=O)[C@H](CO)NC(=O)[C@@H](N)Cc1c[nH]cn1)[C@@H](C)O)[C@@H](C)O)C(=O)N[C@H](C(N)=O)C(C)C — EC50 (Sctr; cAMP production, agonist; CHO-SecR; 30 min, 37 °C, with: 1 mM IBMX): 0.0061 ± 0.0013 µM
Nc1ncnc2c1ncn2[C@@H]1O[C@H](CO)[C@@H](O[C@H]2O[C@H](CO)[C@@H](OP(=O)(O)O)[C@H](OP(=O)(O)O)[C@H]2O)[C@H]1O — EC50 (Itpr1 (Rattus norvegicus, UniProt P29994); calcium release, agonist; DT40 (permeabilised, IP3R1 wild type)): 0.16 µM

Some of these lines once more:
[64Cu+2].c1ccc(CNCc2ccc(CN3CCCN4CCNCCCN(CC4)CC3)cc2)nc1 — tissue uptake (CXCR4; NOD/SCID mouse, U87 and U87-stb-CXCR4 xenografts, muscle; iv, 90 min, no blocking dose, ex vivo): 0.28 ± 0.04 %ID/g
